{"data": "Earlier results as cited in several papers", "note": "Each line is one published result; not all experiments were run side by side. ± gives the spread as reported.", "chain of UniProt Q9BX84 (whole entry, looked up)": "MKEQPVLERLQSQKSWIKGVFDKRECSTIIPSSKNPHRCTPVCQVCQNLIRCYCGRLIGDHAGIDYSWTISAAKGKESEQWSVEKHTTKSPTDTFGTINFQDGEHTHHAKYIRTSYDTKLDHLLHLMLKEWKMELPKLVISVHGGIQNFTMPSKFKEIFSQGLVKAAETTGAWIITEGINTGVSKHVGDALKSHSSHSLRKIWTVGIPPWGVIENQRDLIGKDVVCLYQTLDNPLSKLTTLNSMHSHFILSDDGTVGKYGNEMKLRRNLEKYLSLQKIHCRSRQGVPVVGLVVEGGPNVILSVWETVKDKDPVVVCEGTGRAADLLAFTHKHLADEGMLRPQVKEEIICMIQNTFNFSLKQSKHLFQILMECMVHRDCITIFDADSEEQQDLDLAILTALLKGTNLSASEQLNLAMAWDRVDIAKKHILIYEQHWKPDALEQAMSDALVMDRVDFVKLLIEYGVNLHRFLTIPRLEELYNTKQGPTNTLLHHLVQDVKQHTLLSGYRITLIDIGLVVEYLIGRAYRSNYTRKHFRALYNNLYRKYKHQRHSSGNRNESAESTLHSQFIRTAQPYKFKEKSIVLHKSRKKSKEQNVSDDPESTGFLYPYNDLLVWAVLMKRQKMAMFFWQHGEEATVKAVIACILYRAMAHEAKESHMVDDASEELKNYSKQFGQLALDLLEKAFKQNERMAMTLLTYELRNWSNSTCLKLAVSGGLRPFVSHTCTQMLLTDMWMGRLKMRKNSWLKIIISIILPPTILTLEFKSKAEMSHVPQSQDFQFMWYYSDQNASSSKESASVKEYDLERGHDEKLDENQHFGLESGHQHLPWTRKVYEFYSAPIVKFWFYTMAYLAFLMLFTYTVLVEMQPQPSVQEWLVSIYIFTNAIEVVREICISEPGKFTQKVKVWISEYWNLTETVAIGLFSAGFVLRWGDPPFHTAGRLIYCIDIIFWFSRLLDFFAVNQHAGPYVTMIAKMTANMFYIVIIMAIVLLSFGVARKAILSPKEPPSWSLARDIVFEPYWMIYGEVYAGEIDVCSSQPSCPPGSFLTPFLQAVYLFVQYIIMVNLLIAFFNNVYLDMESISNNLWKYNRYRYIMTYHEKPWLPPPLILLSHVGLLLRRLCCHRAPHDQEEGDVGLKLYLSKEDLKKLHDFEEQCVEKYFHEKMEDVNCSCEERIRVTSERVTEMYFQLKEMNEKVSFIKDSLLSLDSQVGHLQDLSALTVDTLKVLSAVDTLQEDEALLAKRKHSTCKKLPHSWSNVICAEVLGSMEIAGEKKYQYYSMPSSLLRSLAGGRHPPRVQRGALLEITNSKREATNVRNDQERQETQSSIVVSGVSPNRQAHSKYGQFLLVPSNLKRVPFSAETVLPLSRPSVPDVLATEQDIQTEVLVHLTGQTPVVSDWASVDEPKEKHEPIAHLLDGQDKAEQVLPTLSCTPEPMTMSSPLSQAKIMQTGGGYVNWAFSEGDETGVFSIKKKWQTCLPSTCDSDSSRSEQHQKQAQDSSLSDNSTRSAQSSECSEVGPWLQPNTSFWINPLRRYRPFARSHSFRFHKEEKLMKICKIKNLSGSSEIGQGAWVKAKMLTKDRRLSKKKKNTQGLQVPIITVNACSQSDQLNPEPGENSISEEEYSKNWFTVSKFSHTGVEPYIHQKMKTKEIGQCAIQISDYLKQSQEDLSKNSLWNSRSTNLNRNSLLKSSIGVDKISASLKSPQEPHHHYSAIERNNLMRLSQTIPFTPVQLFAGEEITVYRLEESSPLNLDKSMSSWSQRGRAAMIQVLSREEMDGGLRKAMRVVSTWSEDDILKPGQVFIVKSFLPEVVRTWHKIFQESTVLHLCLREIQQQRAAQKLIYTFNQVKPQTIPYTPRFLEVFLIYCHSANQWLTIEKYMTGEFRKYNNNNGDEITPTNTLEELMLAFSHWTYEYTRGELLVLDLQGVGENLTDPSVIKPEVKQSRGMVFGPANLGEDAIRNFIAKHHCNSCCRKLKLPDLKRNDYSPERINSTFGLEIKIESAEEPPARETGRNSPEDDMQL"}
{"Structure (SMILES)": "CC1(C)S[C@@H]2[C@H](NC(=O)[C@H](N)c3ccccc3)C(=O)N2[C@H]1C(=O)O", "target or system": "Enterobacter cloacae", "system": "clinical isolate RKI-No_361/13", "quantity": "MIC", "value": "> 16 µg/mL"}
{"Structure (SMILES)": "COc1cc([C@@H]2Oc3cc([C@H]4Oc5cc(O)cc(O)c5C(=O)[C@@H]4O)ccc3O[C@H]2CO)ccc1O", "target or system": "human OATP1B1 and OATP1B3", "test": "inhibitor", "quantity": "IC50", "value": "2.2 to 9.7 µM"}
{"Structure (SMILES)": "CCC(C)n1ncn(-c2ccc(N3CCN(c4ccc(OCC5COC(Cn6cncn6)(c6ccc(Cl)cc6Cl)O5)cc4)CC3)cc2)c1=O (centres unmarked)", "target or system": "OATP1B3", "how to read": "literature minimum", "quantity": "IC50", "value": "0.71 µM"}
{"Structure (SMILES)": "Nc1cc(C(F)(F)F)c(-c2nc(N3CCOCC3)nc(N3CCOCC3)n2)cn1", "target or system": "Transient receptor potential cation channel subfamily M member 6 (TRPM6, Homo sapiens, UniProt Q9BX84)", "test": "enzyme activity", "conditions": "10 µM", "how to read": "relative to: untreated", "quantity": "remaining activity", "value": "85%"}
{"Structure (SMILES)": "CC(=O)c1c(C)c2cnc(Nc3ccc(N4CCNCC4)cn3)nc2n(C2CCCC2)c1=O", "target or system": "ABCB1", "system": "KB-C2", "quantity": "IC50", "value": "3 µM"}
{"Structure (SMILES)": "CO[C@H]1/C=C/O[C@@]2(C)Oc3c(C)c(O)c4c(O)c(c(/C=N/N5CCN(C)CC5)c(O)c4c3C2=O)NC(=O)/C(C)=C\\C=C\\[C@H](C)[C@H](O)[C@@H](C)[C@@H](O)[C@@H](C)[C@H](OC(C)=O)[C@@H]1C", "target or system": "OATP1B3", "how to read": "literature minimum", "quantity": "IC50", "value": "0.11 µM"}
{"Structure (SMILES)": "NS(=O)(=O)C(F)(F)C(F)(F)C(F)(F)C(F)(F)C(F)(F)C(F)(F)C(F)(F)C(F)(F)F", "target or system": "CYP2C19", "test": "inhibitor", "quantity": "IC50", "value": "64.2 ± 43.4 µM"}
{"Structure (SMILES)": "C=CC(=O)N1CCC[C@@H](n2nc(-c3ccc(Oc4ccccc4)cc3)c3c(N)ncnc32)C1", "target or system": "ABCB1 (human)", "system": "HEK293/ABCB1", "quantity": "IC50", "value": "> 2.5 µM"}
{"Structure (SMILES)": "COC[C@H]1C[C@@H](c2ncc(-c3ccc4c(c3)COc3cc5c(ccc6nc([C@@H]7CC[C@H](C)N7C(=O)[C@@H](NC(=O)OC)C(C)C)[nH]c65)cc3-4)[nH]2)N(C(=O)[C@H](NC(=O)OC)c2ccccc2)C1", "target or system": "OATP1B1", "how to read": "literature minimum", "quantity": "IC50", "value": "1.5 µM"}
{"Structure (SMILES)": "CNC(C)C1CCC(N)C(OC2C(N)CC(N)C(OC3OCC(C)(O)C(NC)C3O)C2O)O1 (centres unmarked)", "target or system": "Enterobacter cloacae", "system": "clinical isolate RKI-No_37/14", "quantity": "MIC", "value": "4 µg/mL"}
{"Structure (SMILES)": "CO/N=C(\\C(=O)N[C@@H]1C(=O)N2C(C(=O)O)=C(CSc3nc(=O)c(=O)[nH]n3C)CS[C@H]12)c1csc(N)n1", "target or system": "MRP3", "test": "transport activity, inhibitor", "quantity": "IC50", "value": "630 µM"}
{"Structure (SMILES)": "CNCc1cn(S(=O)(=O)c2cccc(F)c2)c(-c2ccc(F)cc2F)c1OC", "target or system": "OAT1", "test": "transporter uptake, inhibitor", "quantity": "IC50", "value": "1.36 µM"}
{"Structure (SMILES)": "N[C@@H]1c2cccnc2[C@H](OC(=O)N2CCC(n3c(=O)[nH]c4ncccc43)CC2)CC[C@H]1c1cccc(F)c1F", "target or system": "CYP2D6 (human)", "system": "human liver microsomes", "quantity": "IC50", "value": "> 40 µM"}
{"Structure (SMILES)": "OC(Cn1cncn1)(Cn1cncn1)c1ccc(F)cc1F", "target or system": "CYP2B6", "test": "enzyme activity, inhibitor", "quantity": "IC50", "value": "313 to 361 µM"}
{"Structure (SMILES)": "CC(F)(F)c1cc(F)ccc1-c1sc2cc(O)ccc2c1Oc1ccc(/C=C/C(=O)O)cc1", "target or system": "UGT1A1", "test": "inhibitor", "conditions": "unbound", "quantity": "IC50", "value": "0.35 µM"}
{"Structure (SMILES)": "CC(C)=CCc1cc2c(cc1O)O[C@H](c1ccc(O)cc1)CC2=O", "target or system": "UGT1A1", "test": "inhibitor", "quantity": "IC50", "value": "0.75 µM"}
{"Structure (SMILES)": "C=C(C)[C@@H]1CC[C@]2(C)CC[C@]3(C)[C@H](CC[C@@H]4[C@@]5(C)CC[C@H](O)C(C)(C)[C@@H]5CC[C@]43C)[C@@H]12", "target or system": "rat CYP2D6", "test": "inhibitor", "system": "rat liver microsomes", "quantity": "IC50", "value": "> 100 µM"}
{"Structure (SMILES)": "COC(=O)N[C@H](C(=O)N1CCC[C@H]1c1nc(-c2ccc3c(c2)O[C@@H](c2ccccc2)n2c-3cc3cc(-c4c[nH]c([C@@H]5CCCN5C(=O)[C@@H](NC(=O)OC)C(C)C)n4)ccc32)c[nH]1)C(C)C", "target or system": "CYP2B6", "test": "inhibitor", "system": "human liver microsomes", "quantity": "IC50", "value": "> 100 µM"}
{"Structure (SMILES)": "Cc1ccc(C)c(OCCCC(C)(C)C(=O)O)c1", "target or system": "OATP1B1", "how to read": "literature maximum", "quantity": "IC50", "value": "381 µM"}
{"Structure (SMILES)": "COc1c(N2C[C@@H]3CCCN[C@@H]3C2)c(F)cc2c(=O)c(C(=O)O)cn(C3CC3)c12", "target or system": "MATE1", "test": "inhibitor", "quantity": "IC50", "value": "5 to 12 µM"}
{"Structure (SMILES)": "C=C[C@@H]1C[C@]1(NC(=O)[C@@H]1C[C@@H]2CN1C(=O)[C@H](C(C)(C)C)NC(=O)O[C@@H]1C[C@H]1CCCCCc1nc3ccc(OC)cc3nc1O2)C(=O)NS(=O)(=O)C1CC1", "target or system": "OATP1B3", "how to read": "literature minimum", "quantity": "IC50", "value": "0.574 µM"}
{"Structure (SMILES)": "C=C[C@@H]1C[C@]1(NC(=O)[C@@H]1C[C@@H]2CN1C(=O)[C@H](C(C)(C)C)NC(=O)O[C@@H]1C[C@H]1CCCCCc1nc3ccc(OC)cc3nc1O2)C(=O)NS(=O)(=O)C1CC1", "target or system": "UGT1A1", "test": "inhibitor", "system": "human liver microsomes", "quantity": "IC50", "value": "54 µM"}
{"Structure (SMILES)": "CC(=O)N1CCN(c2ccc(OCC3COC(Cn4ccnc4)(c4ccc(Cl)cc4Cl)O3)cc2)CC1 (centres unmarked)", "target or system": "PXR", "test": "binding", "quantity": "IC50", "value": "74.4 µM"}
{"note": "Excerpt of the above:"}
{"Structure (SMILES)": "CC(=O)N1CCN(c2ccc(OCC3COC(Cn4ccnc4)(c4ccc(Cl)cc4Cl)O3)cc2)CC1 (centres unmarked)", "target or system": "PXR", "test": "binding", "quantity": "IC50", "value": "74.4 µM"}
{"Structure (SMILES)": "CC1(C)S[C@@H]2[C@H](NC(=O)[C@H](N)c3ccccc3)C(=O)N2[C@H]1C(=O)O", "target or system": "Enterobacter cloacae", "system": "clinical isolate RKI-No_361/13", "quantity": "MIC", "value": "> 16 µg/mL"}
